Measurements pooled from the literature.
Lines come from different studies, so protocols differ.
Target: Cytochrome P450 1A2 (CYP1A2, Homo sapiens, UniProt P05177)
Chain of UniProt P05177 (whole entry, looked up): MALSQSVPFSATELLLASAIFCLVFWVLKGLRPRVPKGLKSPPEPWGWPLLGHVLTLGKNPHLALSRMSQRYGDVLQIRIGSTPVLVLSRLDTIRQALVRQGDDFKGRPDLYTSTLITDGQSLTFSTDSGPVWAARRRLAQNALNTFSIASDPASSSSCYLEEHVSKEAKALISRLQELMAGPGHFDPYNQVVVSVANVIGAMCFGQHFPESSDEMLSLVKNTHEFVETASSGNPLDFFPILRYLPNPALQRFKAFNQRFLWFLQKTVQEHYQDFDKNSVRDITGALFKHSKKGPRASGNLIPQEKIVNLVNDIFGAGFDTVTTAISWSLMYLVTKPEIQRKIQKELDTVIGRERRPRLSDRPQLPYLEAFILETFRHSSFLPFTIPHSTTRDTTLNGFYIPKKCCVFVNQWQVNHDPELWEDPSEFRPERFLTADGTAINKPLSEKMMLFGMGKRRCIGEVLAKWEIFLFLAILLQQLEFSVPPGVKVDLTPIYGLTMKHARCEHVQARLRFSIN
Action: inhibitor

Structure (SMILES)	test	system	conditions	quantity	result
CC(C)(O)c1ccccc1CC[C@@H](SCC1(CC(=O)O)CC1)c1cccc(/C=C/c2ccc3ccc(Cl)cc3n2)c1	–	human liver microsomes	2 µM, pH 7.4, with: phenacetin	inhibition	< 0%
C=C[C@H]1CN2CCc3c([nH]c4cccc(OC)c34)[C@@H]2C[C@@H]1/C(=C\OC)C(=O)OC	enzyme activity	human, liver microsomes	–	IC50	> 45 µM
C#CCOc1ccc2oc(-c3ccccc3)cc(=O)c2c1	enzyme activity	–	–	IC50	0.71 µM
C=CC(C)(C)c1cc(/C=C/C(=O)c2ccc(O)cc2)c(OC)cc1O	–	–	–	IC50	< 20 µM
O=C(O)C(F)(F)C(F)(F)C(F)(F)C(F)(F)C(F)(F)F	enzyme activity	Supersomes	with: 7-methoxyresorufin substrate	IC50	> 100 µM
CNC(=O)O/N=C/C(C)(C)SC	–	human liver microsomes	10 µM, pH 7.4, with: phenacetin	inhibition	5.89%
O=c1cc(-c2ccccc2)oc2ccc(O)cc12	enzyme activity	–	–	IC50	6.92 µM
O=C1Cc2cc(CCN3CCN(c4nsc5ccccc45)CC3)c(Cl)cc2N1	–	human liver microsomes	2 µM, pH 7.4, with: phenacetin	inhibition	< 0%
C#CCOc1ccc2c(=O)cc(-c3ccccc3)oc2c1	enzyme activity	–	–	IC50	0.41 µM
O=C(O)C(F)(OC(F)(F)C(F)(F)C(F)(F)F)C(F)(F)F (stereo not drawn)	enzyme activity	Supersomes	with: 7-methoxyresorufin substrate	IC50	> 100 µM
O=c1cc(-c2cccc(O)c2)oc2ccccc12	enzyme activity	–	–	IC50	9.22 µM
CC[C@@H]1CN2CCc3c([nH]c4cccc(OC)c34)[C@H]2C[C@@H]1/C(=C\OC)C(=O)OC	enzyme activity	human, liver microsomes	–	IC50	> 45 µM
